Measured values from different studies.
A part holds a random share of what one study measured. Values joined by “and” are separate records of one study, mostly repeats; a detail may differ.
UniProt Q96PY6, sequence (whole entry, looked up): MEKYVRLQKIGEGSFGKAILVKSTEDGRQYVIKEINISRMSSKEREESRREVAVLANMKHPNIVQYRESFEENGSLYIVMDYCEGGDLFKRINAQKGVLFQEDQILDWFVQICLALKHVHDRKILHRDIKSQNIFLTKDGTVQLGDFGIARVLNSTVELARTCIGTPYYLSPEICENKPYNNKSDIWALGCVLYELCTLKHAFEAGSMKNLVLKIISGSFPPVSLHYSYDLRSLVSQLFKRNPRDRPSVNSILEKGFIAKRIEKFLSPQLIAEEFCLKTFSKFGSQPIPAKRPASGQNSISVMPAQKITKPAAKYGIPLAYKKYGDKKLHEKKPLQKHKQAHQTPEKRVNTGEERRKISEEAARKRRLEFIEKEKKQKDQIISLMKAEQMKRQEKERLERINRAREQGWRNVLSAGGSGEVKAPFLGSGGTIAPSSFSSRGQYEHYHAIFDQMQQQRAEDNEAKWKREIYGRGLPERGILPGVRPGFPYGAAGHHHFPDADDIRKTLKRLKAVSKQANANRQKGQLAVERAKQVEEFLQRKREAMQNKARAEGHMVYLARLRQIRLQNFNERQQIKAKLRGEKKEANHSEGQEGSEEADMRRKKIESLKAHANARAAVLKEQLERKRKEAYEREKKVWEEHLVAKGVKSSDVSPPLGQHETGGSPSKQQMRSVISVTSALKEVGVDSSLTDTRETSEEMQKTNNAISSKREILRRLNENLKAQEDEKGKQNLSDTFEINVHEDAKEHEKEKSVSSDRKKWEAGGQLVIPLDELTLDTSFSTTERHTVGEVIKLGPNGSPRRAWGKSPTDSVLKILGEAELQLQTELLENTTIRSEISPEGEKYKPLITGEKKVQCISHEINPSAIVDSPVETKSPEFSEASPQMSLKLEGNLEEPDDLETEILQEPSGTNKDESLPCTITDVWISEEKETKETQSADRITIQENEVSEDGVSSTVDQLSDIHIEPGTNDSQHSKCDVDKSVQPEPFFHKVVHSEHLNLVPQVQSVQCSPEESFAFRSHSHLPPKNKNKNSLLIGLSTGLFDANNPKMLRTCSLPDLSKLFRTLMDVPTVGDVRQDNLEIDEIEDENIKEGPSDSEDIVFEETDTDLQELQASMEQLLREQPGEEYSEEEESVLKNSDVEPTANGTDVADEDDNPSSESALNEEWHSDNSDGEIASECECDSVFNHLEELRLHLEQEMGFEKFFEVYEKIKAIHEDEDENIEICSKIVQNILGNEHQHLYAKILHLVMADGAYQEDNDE

Set 1
Structure (SMILES): CC(C)C[C@H]1NC(=O)[C@H](N(C)C(=O)[C@@H](CC2CCC2)NC(=O)[C@H]2C[C@H](F)CN2C(=O)C2(C(F)(F)F)CC(F)(F)C2)CCCCNC(=O)C2(CC2)NC(=O)[C@@H](Cc2cc(Cl)ccc2Cl)N(C)C1=O
Method: Vi-Cell counting
Time: 6 days
Relative to: DMSO
| cell line | conditions | cell count |
| --- | --- | --- |
| NCI-H446 | 600 nM | 0.844 and 0.982 and 1.03 |
| A549 | 200 nM | 0.98 and 0.895 and 0.982 |
| HCC4006 | 200 nM | 0.898 and 1.34 and 1.16 |
| NCI-H446 | 2 µM | 0.83 and 0.927 and 0.935 |

Set 2
Host: mouse
Matrix: microsomes or S9
Concentration: 2 µM
Time: 0.5 h
| SMILES | remaining compound [%] |
| --- | --- |
| CN(C)C1(CNC(=O)C(O)c2ccccc2Cl)CCCCC1 (stereo not drawn) | 4.54 |
| CCN(CC(=O)NC)C(=O)c1cc(C)c(C)c(S(=O)(=O)NC)c1 | 85 |
| N=c1sc2cc(OC(F)(F)F)ccc2n1CCO | 66.5 |
| COc1cc(=O)[nH]cc1C(=O)N1CCCC1c1ccnn1C (stereo not drawn) | 82.2 |
| COC(=O)c1cn2c(nc3cc(F)c(F)cc32)c(C#N)c1O | 84 |
| CC(C)(C)OC(=O)N1CCO[C@H](Cn2nnc3ncc(Br)nc32)C1 | 93.1 |
| COC(=O)c1c(CS(=O)(=O)c2ccccc2)n(S(=O)(=O)c2ccccc2)c2ccccc12 | 21 |
| O=C(O)C(c1c[nH]c2ccccc12)N1CCN(CC(=O)N2CCCCCC2)CC1 (stereo not drawn) | 98.8 |

Set 3
Cell line: mouse MPNST tumor cells
Method: high-content immunofluorescence imaging
Measured: nuclear SOX9
Concentration: 10 µM
Time: 12 h
Setting: mean of 2 replicates
Relative to: DMSO control
Reading: higher = more nuclear SOX9
| Compound | nuclear SOX9 intensity |
| --- | --- |
| CN(C)CCOC(=O)C(c1ccccc1)C1(O)CCCC1 (stereo not drawn) | 100 % of DMSO |
| CC[C@H](C)C(=O)O[C@H]1CCC=C2C=C[C@H](C)[C@H](CC[C@@H]3C[C@@H](O)CC(=O)O3)[C@H]21 | 120 % of DMSO and 121 % of DMSO |
| C[C@H]1O[C@H](O[C@H]2[C@H](O)[C@@H](O)[C@@H](O[C@H]3[C@H](O)[C@@H](O)C(O)O[C@@H]3CO)O[C@@H]2CO)[C@H](O)[C@@H](O)[C@@H]1N[C@H]1C=C(CO)[C@@H](O)[C@H](O)[C@H]1O (stereo partly drawn) | 89.7 % of DMSO and 86.1 % of DMSO and 92.7 % of DMSO |
| CCn1c(=Cc2cccc[n+]2CC)sc(=C2Sc3ccccc3N2C)c1=O | 94.7 % of DMSO |
| O=C(O)c1ccc(S(=O)(=O)NC2CCCCC2)cc1 | 97.4 % of DMSO |
| O=C(NNc1ccccc1)c1ccncc1 | 104 % of DMSO |
| COc1ccc2[nH]c3c(-c4cccc5ccccc45)nccc3c2c1 | 199 % of DMSO |
| O=C(Nc1ccc(S(=O)(=O)Nc2nccs2)cc1)C(c1ccccc1)c1ccccc1 | 96.8 % of DMSO |

Single results of other studies
| Structure (SMILES) | target | test | conditions | scale | measurement | result |
| --- | --- | --- | --- | --- | --- | --- |
| COc1ccc2c(c[n+](C)c3c4cc5c(cc4ccc23)OCO5)c1OC | Serine/threonine-protein kinase Nek1 (NEK1, Homo sapiens, UniProt Q96PY6) | enzyme activity, inhibitor | 0.5 µM | relative to: control | remaining activity | 91.3% |

Some of these lines once more (set 2):
| SMILES | remaining compound [%] |
| --- | --- |
| CCN(CC(=O)NC)C(=O)c1cc(C)c(C)c(S(=O)(=O)NC)c1 | 85 |
| N=c1sc2cc(OC(F)(F)F)ccc2n1CCO | 66.5 |
| COc1cc(=O)[nH]cc1C(=O)N1CCCC1c1ccnn1C (stereo not drawn) | 82.2 |
